# Assay results collected from several papers.
# Lines come from different studies, so protocols differ. Values joined by “and” are separate records of one study, mostly repeats; a detail may differ. ± marks the error that the study gave.
SMILES,tested on,assay,system,setting,how to read,endpoint,value
C/C=C/Cn1c(Cc2cc(OC)c(OC)c(OC)c2)nc2c(N)ncnc21,Hsp90α and Hsp90β,"binding, fluorescence polarization competition",,with: Cy3B-geldanamycin tracer,baseline: Ki Hsp90β over Ki Hsp90α,selectivity ratio,11.3 fold and ~11 fold
CCOC(=O)C1=C(C)NC2=C(C(=O)CC(C)(C)C2)C1c1ccc(OCC(=O)NN=Cc2cccc(C=O)c2)cc1OCC(=O)NN=Cc1cccc(C=O)c1 (stereo not drawn),Brevibacillus brevis,,,"concentration not given, 24 h",,inhibition zone diameter,8.1 ± 0.01 mm
COc1cc([C@@H]2c3cc4c(cc3[C@@H](CC(C)(C)O)[C@H]3COC(=O)[C@H]23)OCO4)cc(OC)c1OC,Leishmania,,mouse splenocytes,,baseline: CC50 over amastigote EC50,selectivity index,1.1
C[C@@H]1CN(C2CCC2)CC[C@H](O[C@H]2[C@@H](O)C[C@H](O[C@H]3[C@@H](O)C[C@H](O[C@H]4CC[C@@]5(C)[C@H](CC[C@@H]6[C@@H]5C[C@@H](O)[C@]5(C)[C@@H](C7=CC(=O)OC7)CC[C@]65O)C4)O[C@@H]3C)O[C@@H]2C)O1,,,rat hippocampal slices,"1 µM, 24 min",,baseline extracellular K+,3.36 ± 0.11 mM
COc1cc([C@@H]2c3cc4c(cc3[C@H](C=C(C)C)[C@H]3COC(=O)[C@H]23)OCO4)cc(OC)c1OC,Leishmania infantum,Alamar Blue,HepG2,,baseline: CC50 HepG2 over EC50 amastigotes,selectivity index,4.5
CCOc1ccccc1Nc1nnc(SCC(=O)Nc2cc(F)ccc2F)s1,co-cultured human PBMCs,,MucilAir airway epithelium,"10 µM, 48 h, with: anti-CD3/CD28",,IL-2 secretion,202 ± 11 pg/mL
Cc1ncsc1-c1ccc([C@H](C)NC(=O)[C@@H]2C[C@@H](O)CN2C(=O)[C@@H](NC(=O)CCCCCCC(=O)N2CCN(C[C@]3(C)CCC(c4ccc(Cl)cc4)=C(CN4CCN(c5ccc(C(=O)NS(=O)(=O)c6ccc(N[C@H](CCN7CCOCC7)CSc7ccccc7)c(S(=O)(=O)C(F)(F)F)c6)cc5)CC4)C3)CC2)C(C)(C)C)cc1,,measured: Gpc3,"STAM mice NASH-HCC model, liver","dose not given, day 150, treated days 45-150",,expression level,decreased
CCC1NC(=O)C(CCCNC(=N)N)NC(=O)C(C)(NC(=O)C(C)C)CCCCNC(=O)C(c2ccccc2)NC1=O (stereo not drawn),,flow cytometry,"MLL-AF9 leukaemia cells, mouse",,,c-Kit expression,decreased
COC(=O)[C@@H]1C(c2nc3cc(C)ccc3o2)=Cc2cc3c(cc2[C@H]1c1cc(OC)c(OC)c(OC)c1)OCO3,Leishmania infantum,,"promastigote, iRFP",,,EC50,16.3 ± 1.9 µM
CC(=NN=c1[nH]c2cc(F)c(F)cc2n1C)c1ccc(F)cn1,MDA-MB-231,cell migration area,,"50 nM, two days",baseline: untreated,inhibition,~50%
"C=CC(=O)N1CCC(c2cc(Nc3cc4n(n3)CCOC4)c3ncnn3c2)C1 (single isomer, unassigned)",TMD8 wild type,"calcium flux, FLIPR",,"4 h preincubation, with: anti-IgM",,maximum inhibition,23.5%
COC(=O)[C@@H]1C(C=Nc2cncnc2NC(C)=O)=Cc2cc3c(cc2[C@H]1c1cc(OC)c(OC)c(OC)c1)OCO3,Leishmania infantum,,"promastigote, iRFP",,,EC50,94.5 ± 3 µM

# Excerpt of the above:
SMILES,tested on,assay,system,setting,how to read,endpoint,value
C/C=C/Cn1c(Cc2cc(OC)c(OC)c(OC)c2)nc2c(N)ncnc21,Hsp90α and Hsp90β,"binding, fluorescence polarization competition",,with: Cy3B-geldanamycin tracer,baseline: Ki Hsp90β over Ki Hsp90α,selectivity ratio,11.3 fold and ~11 fold
